Measured values of several laboratories.
Protocols differ between the studies behind these lines. Values joined by “and” are separate records of one study, mostly repeats; a detail may differ. ± marks the error that the study gave.
UniProt P63096, sequence (whole entry, looked up): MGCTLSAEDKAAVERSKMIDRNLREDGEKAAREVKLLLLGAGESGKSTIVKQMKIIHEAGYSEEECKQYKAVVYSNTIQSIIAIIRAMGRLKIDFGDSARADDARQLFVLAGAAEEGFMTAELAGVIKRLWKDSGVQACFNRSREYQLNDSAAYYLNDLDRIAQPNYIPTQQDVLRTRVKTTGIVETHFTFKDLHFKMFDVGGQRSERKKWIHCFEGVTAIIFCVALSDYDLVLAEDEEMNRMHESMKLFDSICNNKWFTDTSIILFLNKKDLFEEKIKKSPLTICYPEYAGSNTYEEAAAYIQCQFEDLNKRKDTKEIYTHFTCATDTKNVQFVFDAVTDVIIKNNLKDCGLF
UniProt P35372, sequence (whole entry, looked up): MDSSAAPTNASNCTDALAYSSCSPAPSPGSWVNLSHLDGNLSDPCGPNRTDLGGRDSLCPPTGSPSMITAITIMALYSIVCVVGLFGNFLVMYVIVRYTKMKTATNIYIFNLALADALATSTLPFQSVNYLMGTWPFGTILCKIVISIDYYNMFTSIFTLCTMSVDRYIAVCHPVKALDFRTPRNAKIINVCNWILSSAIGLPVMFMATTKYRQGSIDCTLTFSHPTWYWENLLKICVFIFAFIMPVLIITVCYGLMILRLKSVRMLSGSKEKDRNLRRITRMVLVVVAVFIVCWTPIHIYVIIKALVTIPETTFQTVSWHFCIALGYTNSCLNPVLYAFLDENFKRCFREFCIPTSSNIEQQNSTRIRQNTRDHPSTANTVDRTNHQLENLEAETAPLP
UniProt P08684, sequence (whole entry, looked up): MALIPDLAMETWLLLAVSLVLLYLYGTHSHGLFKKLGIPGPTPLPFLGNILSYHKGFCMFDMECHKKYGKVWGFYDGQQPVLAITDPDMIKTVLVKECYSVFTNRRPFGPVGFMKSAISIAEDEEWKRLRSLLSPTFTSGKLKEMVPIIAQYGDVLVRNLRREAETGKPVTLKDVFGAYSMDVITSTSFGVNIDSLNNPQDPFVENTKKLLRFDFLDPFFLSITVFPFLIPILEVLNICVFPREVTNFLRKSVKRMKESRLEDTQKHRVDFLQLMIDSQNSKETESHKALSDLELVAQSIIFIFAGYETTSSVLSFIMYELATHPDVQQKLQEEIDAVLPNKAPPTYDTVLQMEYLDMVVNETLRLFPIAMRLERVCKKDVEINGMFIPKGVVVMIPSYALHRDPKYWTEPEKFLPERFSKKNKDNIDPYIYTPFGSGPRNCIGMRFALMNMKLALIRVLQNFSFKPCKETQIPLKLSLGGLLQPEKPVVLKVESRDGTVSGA
UniProt P31323, sequence (whole entry, looked up): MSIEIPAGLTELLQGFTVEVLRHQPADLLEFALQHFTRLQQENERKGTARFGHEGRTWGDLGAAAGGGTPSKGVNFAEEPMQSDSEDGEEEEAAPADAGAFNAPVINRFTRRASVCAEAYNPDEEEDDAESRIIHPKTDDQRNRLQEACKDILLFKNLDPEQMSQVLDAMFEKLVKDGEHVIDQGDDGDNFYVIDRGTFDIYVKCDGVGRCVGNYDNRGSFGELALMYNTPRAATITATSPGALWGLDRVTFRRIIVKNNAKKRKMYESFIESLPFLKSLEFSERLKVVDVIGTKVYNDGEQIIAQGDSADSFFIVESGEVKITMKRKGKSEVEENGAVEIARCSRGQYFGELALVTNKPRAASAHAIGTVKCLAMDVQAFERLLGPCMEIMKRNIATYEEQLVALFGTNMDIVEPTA
UniProt P08709, sequence (whole entry, looked up): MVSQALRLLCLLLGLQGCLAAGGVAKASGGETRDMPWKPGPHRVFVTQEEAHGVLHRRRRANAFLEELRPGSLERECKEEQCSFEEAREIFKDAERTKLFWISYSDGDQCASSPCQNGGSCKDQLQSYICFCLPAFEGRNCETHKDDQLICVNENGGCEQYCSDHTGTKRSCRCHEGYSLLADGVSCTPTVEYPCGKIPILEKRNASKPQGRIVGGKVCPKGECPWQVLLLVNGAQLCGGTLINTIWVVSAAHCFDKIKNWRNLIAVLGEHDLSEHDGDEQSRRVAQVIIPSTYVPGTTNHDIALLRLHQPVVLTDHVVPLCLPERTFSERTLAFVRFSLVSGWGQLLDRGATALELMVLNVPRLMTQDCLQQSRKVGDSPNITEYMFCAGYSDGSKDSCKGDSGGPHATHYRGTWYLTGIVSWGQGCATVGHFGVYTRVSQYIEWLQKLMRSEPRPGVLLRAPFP
UniProt O75388, sequence (whole entry, looked up): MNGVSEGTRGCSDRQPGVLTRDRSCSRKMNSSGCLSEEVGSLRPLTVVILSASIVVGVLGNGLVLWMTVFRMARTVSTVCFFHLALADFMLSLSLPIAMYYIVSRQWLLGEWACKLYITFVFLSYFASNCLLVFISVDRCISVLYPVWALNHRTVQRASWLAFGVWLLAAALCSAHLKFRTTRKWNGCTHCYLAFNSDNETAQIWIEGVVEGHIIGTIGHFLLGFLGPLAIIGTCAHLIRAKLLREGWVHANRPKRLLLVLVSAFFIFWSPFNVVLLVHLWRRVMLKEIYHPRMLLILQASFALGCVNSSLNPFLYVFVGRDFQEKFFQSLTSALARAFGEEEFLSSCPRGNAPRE

CC(C)CC(=O)OC[C@H]1O[C@@](C#N)(c2ccc3c(N)ncnn23)[C@H](O)[C@@H]1O  recovery (ATP-dependent translocase ABCB1 (ABCB1, Homo sapiens, UniProt P08183); basolateral to apical transport; Caco-2; 9 µM, 2 h, together with: verapamil 100 µM): 76.6%
OC(CCN1CC=C(c2ccc(F)cc2)CC1)c1ccc(F)c2ccccc12 (stereo not shown)  induction factor (Salmonella typhimurium; genotoxicity, SOS/umu test; TA1535/pSK1002; 0.004 mg/mL, 4 h, without S9, full range): 1.1
COc1ncnn2ccc(-c3cnc4nc(C)n(Cc5nnc([C@@H](C)F)o5)c4c3)c12  incidence of Fatigue (human patients; oral, dose not given, all-grade adverse drug reaction): 14.3%
C[C@@H](O)[C@@H](CO)NC(=O)[C@@H](CCCNC(=N)N)NC(=O)[C@@H]1CCCN1C(=O)[C@@H]1CSSC[C@H](NC(=O)[C@H](Cc2ccccc2)NC(=O)CN2CCN(CC(=O)O)CCN(CC(=O)O)CCN(CC(=O)O)CC2)C(=O)N[C@@H](Cc2ccc(O)cc2)C(=O)N[C@@H](Cc2ccccc2)C(=O)N[C@@H](CCC(N)=O)C(=O)N[C@@H](CC(N)=O)C(=O)N1 [gallium-68 labelled]  tissue uptake (healthy Wistar rat, heart; intravenous, 8 MBq, 30 min, individual animals): 0.28 %ID/g
CNC(=O)c1c(N(C)N=O)ncn1C  revertant colonies per plate (Escherichia coli; mutagenicity, Ames plate incorporation; WP2 uvrA pKM101; 50 µg/plate, without S9, methanol): 121 ± 11
Cc1ncc2n1-c1ccc(Cl)cc1C(c1ccccc1F)=NC2  AUC(0-inf) (Cytochrome P450 3A4 (CYP3A4, Homo sapiens, UniProt P08684); human, plasma; oral, 2 mg, day 1, alone, geometric mean): 20.7 ng·h/mL
CCN(CC)C(=O)[C@@H]1C=C2c3cccc4[nH]cc(c34)C[C@H]2N(C)C1  AUC (human, plasma; dose not given, after placebo pretreatment): 15 ng·h/mL
CC[C@H](C)[C@H](NC(=O)[C@H](Cc1ccccc1)NC(=O)[C@H](CCC(=O)O)NC(=O)[C@H](CCCNC(=N)N)NC(=O)[C@H](C)NC(=O)[C@H](C)NC(=O)[C@H](CCC(N)=O)NC(=O)[C@H](CCC(=O)O)NC(=O)[C@H](CCC(=O)O)NC(=O)[C@H](CC(C)C)NC(=O)[C@H](Cc1ccc(O)cc1)NC(=O)[C@H](CO)NC(=O)[C@H](CO)NC(=O)[C@@H](NC(=O)[C@H](CC(=O)O)NC(=O)[C@H](CO)NC(=O)[C@@H](NC(=O)[C@H](Cc1ccccc1)NC(=O)[C@@H](NC(=O)CNC(=O)[C@H](CCC(=O)O)NC(=O)[C@H](C)NC(=O)CCc1c[nH]cn1)[C@@H](C)O)[C@@H](C)O)C(C)C)C(=O)N[C@@H](C)C(=O)N[C@@H](Cc1c[nH]c2ccccc12)C(=O)N[C@@H](CC(C)C)C(=O)N[C@H](C(=O)N[C@@H](CCCNC(=N)N)C(=O)NCC(=O)N[C@@H](CCCNC(=N)N)C(=O)N[C@@H](CCCCNC(=O)COCCOCCNC(=O)COCCOCCNC(=O)CC[C@H](NC(=O)CCCCCCCCCCCCCCCCC(=O)O)C(=O)O)C(=O)NCC(=O)NCC(=O)N[C@@H](CO)C(=O)N[C@@H](CCCCNc1c(NCCCCCN(O)C(=O)CCC(=O)NCCCCCN(O)C(=O)CCC(=O)NCCCCCN(O)C(C)=O)c(=O)c1=O)C(=O)O)C(C)C [zirconium-89 labelled]  tissue uptake (rat, intestine; iv, 3 nmol/kg, 4 h, ex vivo): 0.31 %ID/g
COCCN(CCOC)N=O  revertant colonies per plate (Escherichia coli; mutagenicity, Ames plate incorporation; WP2 uvrA pKM101; 500 µg/plate, 3 d, without S9, methanol): 145 ± 6
CC[C@H](C)[C@@H]1NC(=O)[C@@H]2CCCN2C(=O)[C@H](CC(C)C)NC(=O)[C@H](CC(C)C)NC(=O)CNC(=O)[C@@H](NC(=O)[C@@H](NC(=O)[C@H](CC(=O)O)NC(=O)CNC(=O)[C@@H](NC(=O)[C@H](C)NC(=O)CNC(=O)[C@H](CCCCN)NC(=O)[C@H](CC(C)C)NC(=O)[C@H](CC(C)C)NC(=O)[C@H](CCCCN)NC(=O)CNC(=O)[C@@H](NC(=O)[C@@H](N)CC(C)C)C(C)C)C(C)C)C(C)C)CSSC[C@@H](C(=O)O)NC1=O  log2 fold change (RNA-seq, measured: Ccl6 mRNA; mouse traumatic brain injury, frontal cortex and hippocampus; dose not given; relative to: TBI plus compound vs TBI): -2.36
CN(N=O)c1ccc(F)cc1  revertant colonies per plate (Escherichia coli; mutagenicity, Ames plate incorporation; WP2 uvrA pKM101; 500 µg/plate, 3 d, without S9, methanol): 104 ± 9
COc1ccc(N2C(=O)N(c3c(C)cccc3Cl)Cc3cnc(Nc4ccc(C5CCN(C)CC5)cc4OC)nc32)nc1  inhibition (Ephrin type-B receptor 2 (EPHB2, Homo sapiens, UniProt P29323); kinase activity; 0.5 µM): 99%
O=[N+]([O-])c1ccc(N2CCC(NCCC(O)c3ccc(F)c4ccccc34)CC2)c(C(F)(F)F)c1 (stereo not shown)  induction factor (Salmonella typhimurium; genotoxicity, SOS/umu test; TA1535/pSK1002; 0.004 mg/mL, 4 h, without S9, lower range): 0.7
CC(C)(C)[C@H](NC(=O)C(F)(F)F)C(=O)N1C[C@H]2[C@@H]([C@H]1C(=O)N[C@H](C#N)C[C@@H]1CCNC1=O)C2(C)C  intrinsic clearance (human hepatocytes; scaled to liver): < 8.9 mL/min/kg
CSCC[C@H](NC(=O)[C@@H](N)Cc1ccc(O)cc1)C(=O)N[C@@H](Cc1ccccc1)C(=O)N[C@@H](CO)C(=O)N1CCC[C@H]1C(=O)N[C@H](C(=O)N[C@@H](Cc1c[nH]cn1)C(=O)N[C@@H](CCC(N)=O)C(=O)N[C@@H](Cc1ccccc1)C(=O)O)[C@@H](C)O  IC50 (HLA class I histocompatibility antigen, A alpha chain, allele A*24:02 (Homo sapiens, UniProt P04439); binding): 1210 nM
O=C(O)C[C@H](NC(=O)[C@H](CC(=O)O)NC(=O)[C@H](CC(=O)O)NC(=O)[C@H](CC(=O)O)NC(=O)[C@H](CC(=O)O)NC(=O)[C@H](CC(=O)O)NC(=O)[C@H](CC(=O)O)NC(=O)[C@H](CC(=O)O)NC(=O)[C@H](CC(=O)O)NC(=O)[C@H](CC(=O)O)NC(=O)[C@H](CC(=O)O)NC(=O)[C@H](CCCCNC(=O)c1ccc(C(=O)NCCOCCOB2BBBBBB3BBBB3B2)cc1)NC(=O)CN1CCN(CC(=O)O)CCN(CC(=O)O)CCN(CC(=O)O)CC1)C(=O)O [gallium-67 labelled]  tissue uptake (ddY male mice, large intestine; intravenous, 37 kBq, 3 h): 0.34 %ID/g
Oc1ccc2c3c1O[C@H]1[C@@H](O)CC[C@@]4(O)[C@@H](C2)N(CC2CCC2)CC[C@]314  log2 fold change (GPR32 (Homo sapiens, UniProt O75388); β-arrestin recruitment, TANGO luminescence; concentration not given; relative to: basal luminescence): 0.264
CCC1(c2ccccc2)C(=O)NC(=O)NC1=O  relative enzyme activity (CYP2B6 human; inducer; hepatocytes lot HC3-31; 750 µM; relative to: DMSO): 3.6
CO[C@H]1C[C@@H]2CC[C@@H](C)[C@@](O)(O2)C(=O)C(=O)N2CCCC[C@H]2C(=O)O[C@H]([C@H](C)C[C@@H]2CC[C@@H](OC(=O)NCCOCCOCCOCCOCCOCCOCCOCCOCCC(=O)N3CCc4cc(Cn5nc(-c6ccc7oc(N)nc7c6)c6c(N)ncnc65)ccc4C3)[C@H](OC)C2)C[C@@H](O)[C@H](C)/C=C(\C)[C@@H](O)[C@@H](OC)C(=O)[C@H](C)C[C@H](C)/C=C/C=C/C=C/1C  incidence of Fatigue TRAE (patients with advanced solid tumours; intravenous, 1.6 mg/3 mg weekly, grade ≥3): 0%
O=C1c2c(O)c(=O)ccn2N([C@@H]2c3ccccc3SCc3c2ccc(F)c3F)[C@@H]2COCCN12  plasma concentration (BALB/c mice, plasma; oral, 50 mg/kg baloxavir marboxil, 0.5 h): 216 ng/mL
COc1cc(Nc2ncc(F)c(Nc3ccc4c(n3)NC(=O)C(C)(C)O4)n2)cc(OC)c1OC  IC50 (Coagulation factor VII (F7, Homo sapiens, UniProt P08709)): > 10000 nM
C[C@]1(CO)Cc2ncn(-c3ccc(C#N)c(Cl)c3)c2C(=O)O1  linearity index (human, plasma; 80 mg multiple doses; relative to: dose-proportional exposure): 101%
O=c1ccc2ccccc2o1  chance response (NHEK; cell count; concentration not given, 1 h, heat and osmotic shock panel): 0.07%
C[C@@H](O)[C@H](NC(=O)[C@@H]1CSSC[C@H](NC(=O)[C@@H](Cc2ccccc2)NC(=O)CN2CCN(CC(=O)[O-])CCN(CC(=O)[O-])CCN(CC(=O)[O-])CC2)C(=O)N[C@@H](Cc2ccc(O)cc2)C(=O)N[C@H](Cc2c[nH]c3ccccc23)C(=O)N[C@@H](CCCCN)C(=O)N[C@@H]([C@@H](C)O)C(=O)N1)C(=O)O.[177Lu+3]  retention (MEC1 treated with 200 µM zebularine; gamma counter; 30 min efflux after 2 h loading): 42.1%
Cc1cc(C(=O)NC(C)(C)COc2cccc3c2C(N)=NS(=O)(=O)N3)cc(C)n1  revertant ratio (Salmonella typhimurium; Ames test, initial; TA1537; 5000 µg/plate, together with: rat liver S9; relative to: solvent control): 1.2
CC(C)C[C@H](NC(=O)[C@H](Cc1c[nH]cn1)NC(=O)[C@H](Cc1c[nH]cn1)NC(=O)[C@H](Cc1ccc(O)cc1)NC(=O)[C@@H](N)CS)C(=O)N[C@H](C(=O)N[C@@H](CC(C)C)C(=O)N[C@H](C(=O)N[C@H](C(=O)NCC(=O)NCC(=O)N[C@@H](CO)C(=O)O)C(C)C)[C@@H](C)O)C(C)C  body weight (Epstein-Barr virus; B-NDG humanized mouse, EBV-infected; 20 mg/kg, day 42): 24.4 g and 21.7 g
CN(CC(C)(C)C)N=O  revertant colonies per plate (Escherichia coli; mutagenicity, Ames plate incorporation; WP2 uvrA pKM101; 150 µg/plate, without S9, methanol): 121 ± 10
Oc1ccc(C2(c3ccc(O)cc3)c3ccccc3-c3ccccc32)cc1  early apoptotic cells (HepG2 spheroids, dissociated; annexin V-FITC/PI flow cytometry; 1 µM, 96 h): 6.76 ± 5.93%
COc1ccc2c(c1)[C@]13CCCC[C@@H]1[C@H](C2)N(C)CC3  plasma concentration (C57BL/6 mouse, plasma; oral, 50 µg/g, 300 min): 0 ng/mL
Nc1nc2c(ncn2[C@@H]2O[C@H](COP(=O)(O)OP(O)(O)=S)[C@@H](O)[C@H]2O)c(=O)[nH]1  IC50 (OPRM1/GNAI1 (Homo sapiens, UniProt P35372+P63096); MOR-Gi coupling; HEK293F; ratio 1:1): 41.9 nM and 48.3 nM
C[C@H]1CN(c2n[nH]c3nc(N[C@H]4CC[C@H](NS(=O)(=O)CCC(F)(F)F)CC4)ncc23)CCO1  relative abundance (cAMP-dependent protein kinase type II-beta regulatory subunit (PRKAR2B, Homo sapiens, UniProt P31323); inhibitor, Kinobeads competition profiling; 20 µM; relative to: vehicle): 1.09
Cc1ncc(OC[C@@]2(c3cccc(F)c3)C[C@H]2C(=O)Nc2ccc(F)cn2)c(C)n1  mass recovery (MDCK; 1 µM, 90 min, pH 6.5 apical, 7.4 basolateral, basolateral to apical): 103 ± 3%
CN1CC[C@@H](c2c(O)cc(O)c3c(=O)cc(-c4ccc(C(F)(F)F)cc4Cl)oc23)[C@@H]1CO  patients with adverse event (measured: Hyperglycemia; relapsed B-cell malignancies; oral, 200 mg, grade 3-4, intermittent dosing): 0%
COc1cc2c(Oc3ccc4[nH]c(C)cc4c3F)ccnc2cc1OCC1(N)CC1  abdominal distension incidence (paediatric refractory sarcoma patients; 12 mg): 9.1%

A few entries again:
COc1ncnn2ccc(-c3cnc4nc(C)n(Cc5nnc([C@@H](C)F)o5)c4c3)c12  incidence of Fatigue (human patients; oral, dose not given, all-grade adverse drug reaction): 14.3%
CN(N=O)c1ccc(F)cc1  revertant colonies per plate (Escherichia coli; mutagenicity, Ames plate incorporation; WP2 uvrA pKM101; 500 µg/plate, 3 d, without S9, methanol): 104 ± 9
O=C1c2c(O)c(=O)ccn2N([C@@H]2c3ccccc3SCc3c2ccc(F)c3F)[C@@H]2COCCN12  plasma concentration (BALB/c mice, plasma; oral, 50 mg/kg baloxavir marboxil, 0.5 h): 216 ng/mL
Cc1cc(C(=O)NC(C)(C)COc2cccc3c2C(N)=NS(=O)(=O)N3)cc(C)n1  revertant ratio (Salmonella typhimurium; Ames test, initial; TA1537; 5000 µg/plate, together with: rat liver S9; relative to: solvent control): 1.2
COc1ccc(N2C(=O)N(c3c(C)cccc3Cl)Cc3cnc(Nc4ccc(C5CCN(C)CC5)cc4OC)nc32)nc1  inhibition (Ephrin type-B receptor 2 (EPHB2, Homo sapiens, UniProt P29323); kinase activity; 0.5 µM): 99%
